Published values collected from several papers.
A part holds a random share of what one study measured. Positions count from the first letter of the parent shown.

Sample 1
Target: Centromere-binding protein 1, full length, His-tagged (CBF1, Saccharomyces cerevisiae, UniProt P17106, residues 1-351)
Chain of UniProt P17106 (whole entry, looked up): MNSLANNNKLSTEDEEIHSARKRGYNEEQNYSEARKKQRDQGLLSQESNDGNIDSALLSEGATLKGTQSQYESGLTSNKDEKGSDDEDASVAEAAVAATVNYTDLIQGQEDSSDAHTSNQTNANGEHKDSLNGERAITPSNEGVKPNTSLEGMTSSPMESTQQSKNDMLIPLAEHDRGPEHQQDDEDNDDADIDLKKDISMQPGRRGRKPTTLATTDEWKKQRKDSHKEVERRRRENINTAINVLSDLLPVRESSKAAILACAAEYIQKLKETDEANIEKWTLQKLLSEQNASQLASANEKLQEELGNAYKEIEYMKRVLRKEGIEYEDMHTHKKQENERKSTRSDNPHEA
Method: competition protein-binding microarray
Molecule type: double-stranded DNA, one strand shown
Medium: in vitro
Tested at: 2 µM
Notes: whole 60-bp probe, lowest competitor level
Together with: Pho4 competitor, 0.05 µM
Direction: higher = stronger binding
`CATACCCAACCTTGCAGGGTGGGTGAAGATATTTGTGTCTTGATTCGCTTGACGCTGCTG` has a fluorescence intensity of 58.8 a.u.
`CGGGGTTAAGTTTGTCACCTAACTTGCTTGCAGCAGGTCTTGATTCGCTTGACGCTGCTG` has a fluorescence intensity of 65.8 a.u.
The fluorescence intensity of `AAAAAATGTGAATTGCACATGCCCAGCGCGCTCGCAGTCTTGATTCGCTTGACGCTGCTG` is reported as 114 a.u.
For `TAAAAACGATTTCACCACGTGACTCGTATTAGAAATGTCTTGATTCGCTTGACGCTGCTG`, the fluorescence intensity was 11800 a.u.
With `GGTAACACCTTCGAAACCGTGACTCGTCTTGACAGCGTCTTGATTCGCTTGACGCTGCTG` the fluorescence intensity was 124 a.u.

Sample 2
Target: CCNE2, cyclin fold, Cln2 fusion (human)
Method: yeast growth competition, sequencing
Medium: yeast
Notes: strong parent motif
Relative to: not given
Direction: higher = stronger binding
Starting sequence: BRCA2 docking peptide (human); PSIKRNLLNEFDR; partner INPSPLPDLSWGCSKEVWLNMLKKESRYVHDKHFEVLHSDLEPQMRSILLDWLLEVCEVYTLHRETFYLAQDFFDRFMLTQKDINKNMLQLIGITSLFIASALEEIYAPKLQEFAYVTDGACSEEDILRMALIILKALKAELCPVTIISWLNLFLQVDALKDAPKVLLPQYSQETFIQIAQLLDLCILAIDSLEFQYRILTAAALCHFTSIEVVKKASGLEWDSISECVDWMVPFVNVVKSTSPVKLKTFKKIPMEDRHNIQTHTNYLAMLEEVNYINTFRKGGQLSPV
`K4Y`: “normalised enrichment score” 0.283.
`S2H`: “normalised enrichment score” 1.09.
Under “normalised enrichment score”, `D12E` is recorded as 2.48.
For `R13W`, “normalised enrichment score” read 2.07.
Under “normalised enrichment score”, `N9G` is recorded as 1.32.

Sample 3
Target: Sox, HMG box (Pigoraptor chileana)
Method: Spec-seq
Molecule type: double-stranded DNA, one strand shown
Medium: in vitro
Tested at: not given
Notes: whole probe, mean of replicates
Relative to: not given
Direction: lower = stronger binding
Shared flanks, not repeated: GAGTCGTCTCGTCAGCAC … CCGTAGAGCACTCAGGTC
Construct (chain): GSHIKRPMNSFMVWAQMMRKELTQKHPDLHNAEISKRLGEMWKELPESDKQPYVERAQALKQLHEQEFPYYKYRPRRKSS
For `GTTCGTT`, “relative binding energy” read 1.58 ln ratio.
For `GGAAGTT`, “relative binding energy” read 1.05 ln ratio.
For `CATAGTG`, “relative binding energy” read -0.523 ln ratio.
`CATGGCG`: “relative binding energy” 0.527 ln ratio.
`CATACTG` — result for “relative binding energy”: -0.141 ln ratio.
`TACCGTT`: “relative binding energy” 0.195 ln ratio.
For `CATCGCT`, “relative binding energy” read 0.597 ln ratio.
For `TTACGTT`, “relative binding energy” read 0.539 ln ratio.
`CATCATG` — result for “relative binding energy”: 0.116 ln ratio.

Single results of other studies
For `PhoQ, residues 284 288 289 292 302 303 SNSSNI`, the fold induction was 6.34 (PhoP, residues 12 14 15 18 19 SQCLL (Escherichia coli, UniProt P23836); Sort-seq, measured: YFP reporter; E. coli; PhoQ-PhoP variant library, together with: 10 µM Mg2+; relative to: high Mg2+ state, higher = stronger signaling).

For quick reference, copied from above (sample 3):
For `CATCGCT`, “relative binding energy” read 0.597 ln ratio.
`CATACTG` — result for “relative binding energy”: -0.141 ln ratio.
`CATCATG` — result for “relative binding energy”: 0.116 ln ratio.
